Results of several laboratories.
± marks the error that the study gave. Bridges are numbered along the chain shown (N, C = ends). Where no end group is shown, it is not given here.
CHRM1: Muscarinic acetylcholine receptor M1 (CHRM1, Homo sapiens, UniProt P11229)
Sequence of UniProt P11229 (whole entry, looked up): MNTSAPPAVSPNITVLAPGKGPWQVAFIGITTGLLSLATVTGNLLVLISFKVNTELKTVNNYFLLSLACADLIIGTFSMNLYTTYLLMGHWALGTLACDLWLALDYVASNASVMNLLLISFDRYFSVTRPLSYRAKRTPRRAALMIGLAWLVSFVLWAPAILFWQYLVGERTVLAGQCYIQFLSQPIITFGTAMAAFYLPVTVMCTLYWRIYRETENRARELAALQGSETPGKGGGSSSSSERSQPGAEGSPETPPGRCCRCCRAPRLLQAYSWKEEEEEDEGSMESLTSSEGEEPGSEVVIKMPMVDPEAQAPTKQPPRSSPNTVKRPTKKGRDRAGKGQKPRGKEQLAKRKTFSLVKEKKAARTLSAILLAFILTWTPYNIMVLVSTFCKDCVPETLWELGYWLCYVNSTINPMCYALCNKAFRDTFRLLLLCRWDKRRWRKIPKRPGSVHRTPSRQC

CCOc1ccc(C[C@@H](N)C(=O)N[C@@H](Cc2ccccc2)C(=O)NC2CCN(C(=N)N)CC2)cc1.O=C(O)C(F)(F)F.O=C(O)C(F)(F)F  increase in retinal thickness (SD-OCT; mouse, retina; subcutaneous osmotic pump, 1.60 mg/kg/day, 48 h, added: VEGF 100 ng/eye intravitreal; relative to: baseline): 16.1 ± 3.8 µm
Oc1cccc2ccccc12  vitellogenin level (fish short-term reproduction; Oryzias latipes, male, liver; 258 µg/L, 21 d): 81 ± 75 ng/mg liver
CC[C@@H](C(=O)Nc1ccc(C(N)=O)c(F)c1)n1cc(OC)c(-c2cc(Cl)ccc2-n2cc(C(F)(F)F)nn2)cc1=O  thrombus weight (New Zealand White rabbit, FeCl2 carotid injury; intravenous bolus, 20 mg/kg): 2.2 mg
C[C@H]1C[C@H]2CSC(N)=N[C@@]2(c2nc(NC(=O)c3ccc(OC(F)F)cn3)cs2)CO1  change from baseline (refers to: CSF sAPPα; healthy adults; 275 mg once daily, 14 days, day 15; relative to: placebo-adjusted baseline): 98%
COc1ccc(Nc2c(-c3ccc(S(C)(=O)=O)cc3)nc3cccc(C)n23)cc1  pain score AUC (formalin test; male Wistar rat; intraperitoneal, 40 mg/kg; relative to: control group): decreased
insulin lispro  total glucose infused (euglycemic clamp; obese type 2 diabetes patients; subcutaneous, 50 units): 678 mg/kg
CS/C(S)=N/CCCC[S+](C)[O-] (racemic)  mRNA fold change (RT-PCR, refers to: Gckr; rat, liver; oral gavage, 200 mg/kg, 96 h, dosed for four days; relative to: vehicle): 1.71
COc1cc(-c2nc3cc(Cl)ccc3[nH]2)ccc1OCc1ccccc1  IC50 (ABTS scavenging, absorbance): 1660 nM
CC(C)(C)OC(=O)NCC(=O)OC1CCC2(C)C(C(O)CC3(C)C2CC(O)C2C(C4(C)CCCC(C)(C)O4)CCC23C)C1(C)C (stereo not drawn)  tumour growth inhibition (refers to: tumour weight; nude mouse, HeLa xenograft; intraperitoneal, 50 mg/kg, every 2 days for 20 days): 76.2%
CC1(C)CCC(c2ccc(Cl)cc2)=C(CN2CCN(c3ccc(C(=O)NS(=O)(=O)c4ccc(N[C@H](CCN5CCOCC5)CSc5ccccc5)c(S(=O)(=O)C(F)(F)F)c4)cc3)CC2)C1  EC50 (cell kill, PI exclusion flow cytometry; normal CD3+ T lymphocytes, dog, lymph node; 24 h): 112 ± 97 nM
insulin glulisine  plasma glucose AUC(0-6 h) (obese type 2 diabetes patients; subcutaneous, 0.2 U/kg, before standard meal): 738 mg·h/dL
CCOC(=O)[C@@]1(C)CSC(c2ccc(OCCOCCOC)cc2O)=N1  duration of iron excretion (bile duct-cannulated rats, non iron-overloaded, bile; oral, 300 µmol/kg): > 48 h
CC(C)C[C@H](NC(=O)[C@H](CO)NC(=O)[C@H](CCCNC(=N)N)NC(=O)[C@H](CC(=O)O)NC(=O)[C@H](CCC(=O)O)NC(=O)[C@H](C)NC(=O)[C@@H]1CCCN1C(=O)[C@H](C)NC(=O)[C@H](CCC(=O)O)NC(=O)[C@@H]1CCCN1C(=O)[C@@H]1CCCN1)C(N)=O  DOPAC level (HPLC-EC; F344 rat, normal, striatum; intranasal, 1000 µg, 5 days/week for 3 weeks): 1570 ± 186 ng/g
Cc1ccc(NC(=O)c2ccc(CN3CCN(C)CC3)cc2)cc1Nc1nccc(-c2cccnc2)n1  reduction in RVSP (rat, SU5416/hypoxia PAH model; oral, 15.0 mg/kg once daily, 2 weeks; relative to: vehicle): 28%
COC(=O)[C@@H]1[C@H]2C[C@H]3c4[nH]c5ccccc5c4CCN3C[C@@H]2CC[C@@H]1O  plasma corticosterone (ethanol-trained rats; intraperitoneal, 2 mg/kg; relative to: vehicle): increased
Cc1c(C(=O)NN2CCCCC2)nn(-c2ccc(Cl)cc2Cl)c1-c1ccc(Cl)cc1  corticosterone level (rat, diet-induced obese, plasma; peripheral, 10 mg/kg per day, 6 days): 73.3 ± 10.1 ng/mL
c1ccc(CNCc2ccc(CN3CCCNCCNCCCNCC3)cc2)nc1  thrombus volume (flow chamber, confocal microscopy; human blood; 1 µM, plaque-coated, shear 600 s⁻¹): decreased
insulin degludec  AUC(GIR) mean estimate (euglycaemic clamp; healthy human subjects; subcutaneous, deltoid, 0.4 U/kg, 0 to 24 h): 2960 mg/kg
C[C@H]1C[C@@H]2[C@H]([C@@H](O)C[C@@]3(C)[C@H]2CC[C@]3(O)C(=O)CO)[C@@]2(C)C=CC(=O)C=C12  steroidogenic AUEC(0-24) (human, plasma free; oral, 32 mg daily, day 1, mean, CSG = 5 × MPD + cortisol): 572 ng·h/mL
CC(C)C[C@@H]1NC(=O)[C@H](CCCNC(=N)N)NC(=O)[C@H](Cc2c[nH]c3ccccc23)NC(=O)[C@H](CCCNC(=N)N)NC(=O)CNC(=O)CNC(=O)[C@H](CCCCN)NC(=O)CNC(=O)[C@H](Cc2c[nH]c3ccccc23)NC(=O)[C@H](CC(=O)O)NC(=O)[C@@H](NC(=O)[C@H](CCC(=O)O)NC(=O)[C@H](C)NC(=O)CCCC[C@@H]2SC[C@@H]3NC(=O)N[C@@H]32)CSSC[C@@H](C(=O)NCC(=O)N2CCC[C@H]2C(=O)O)NC(=O)[C@H](C)NC(=O)[C@H](CCC(=O)O)NC(=O)[C@H]([C@@H](C)O)NC(=O)[C@H](CCCCN)NC(=O)CNC(=O)[C@H](CO)NC(=O)[C@H](C)NC(=O)CNC(=O)[C@@H]2CCCN2C(=O)[C@H](Cc2c[nH]c3ccccc23)NC1=O  amyloid plaque burden (thioflavin S, Congo red; APPswe/PSEN1(A246E) mouse, young, brain hippocampus; s.c., once monthly, 5 to 12 months, with adjuvant; relative to: mock-immunized): 20 ± 4%
RKVVTDFFKNIPQRI  IFN-gamma secretion (sandwich ELISA; peptide, peptide-specific T cell line, mouse, culture supernatant; dose not given, 48 h): 0.251 ng/mL
tissue plasminogen activator  BBB leakage (refers to: fibrin; rat MCAO stroke model, brain; dose not given, 24 h, dosed 4 h after MCAO; relative to: saline): increased
CC[C@H](C)[C@H](NC(=O)[C@H](CCC(=O)O)NC(=O)[C@H](CO)NC(=O)[C@@H](NC(=O)[C@@H](N)CO)C(C)C)C(=O)N[C@@H](CCC(N)=O)C(=O)N[C@@H](CC(C)C)C(=O)N[C@@H](CCSC)C(=O)N[C@@H](Cc1c[nH]cn1)C(=O)N[C@@H](CC(N)=O)C(=O)N[C@@H](CC(C)C)C(=O)NCC(=O)N[C@@H](CCCCN)C(=O)N[C@@H](Cc1c[nH]cn1)C(=O)N[C@@H](CC(C)C)C(=O)N[C@@H](CC(N)=O)C(=O)N[C@@H](CO)C(=O)N[C@@H](CCSC)C(=O)N[C@@H](CCC(=O)O)C(=O)N[C@@H](CCCNC(=N)N)C(=O)N[C@H](C(=O)N[C@@H](CCC(=O)O)C(=O)N[C@@H](Cc1c[nH]c2ccccc12)C(=O)N[C@@H](CC(C)C)C(=O)N[C@@H](CCCNC(=N)N)C(=O)N[C@@H](CCCCN)C(=O)N[C@@H](CCCCN)C(=O)N[C@@H](CC(C)C)C(=O)N[C@@H](CCC(N)=O)C(=O)N[C@@H](CC(=O)O)C(=O)N[C@H](C(=O)N[C@@H](Cc1c[nH]cn1)C(=O)N[C@@H](CC(N)=O)C(=O)N[C@@H](Cc1ccccc1)C(=O)O)C(C)C)C(C)C  percent change (refers to: serum P1NP; postmenopausal women, osteoporosis; subcutaneous, 56.5 µg once weekly, 24 h; relative to: 0 h value): 4.9 to 8.6%
CCOC(=O)c1cnc2[nH]ccc2c1N[C@@H]1CCCN(C(=O)CC#N)C1  inhibition (refers to: CCL8 mRNA; pig, skin; topical, 2% solution, 3 h, added: intradermal IL-15; relative to: vehicle): 83%
GKWHCTTKFPHHYCLYG (disulfide 5-14 (inferred)) (cyclic, disulfide)  fluorescence intensity (β2-AR transgenic mouse, left ventricle lysate; intravenous, 0.5 mg/kg, 4 h; relative to: nontransgenic mice): 3.13 fold
COCCSc1nnc(C23CC4CC(CC(C4)C2)C3)n1-c1ccccc1  inhibition in vivo (paw oedema; rat; intraperitoneal, 20 mg/kg): 2.53%
CCCCCN(C)CC(=O)[C@H](CC(=O)O)NC(=O)[C@H](CC)n1cc(C(C)(C)C)nc(NCc2nonc2C)c1=O  ED50 (αII-spectrin cleavage; rat, CLP sepsis, thymus; iv infusion, 24 h; inhibition): ~0.5 mg/kg/h
NCCCCCCNS(=O)(=O)c1cccc2c(Cl)cccc12  NMDA-induced PSD-95-CaM binding (inhibitor, co-immunoprecipitation; mouse forebrain slices; 20 µM, added: NMDA 100 µM for 5 min): inhibited
Cc1ccc(NC(=O)c2ccc(CN3CCN(C)CC3)cc2)cc1Nc1nccc(-c2cncc(-c3oncc3C)c2)n1  MDS-UPDRS part I score (mild-to-moderate Parkinson's disease patients; oral, 50 mg once daily, pre-dose baseline, on anti-Parkinson medication; direction not given): 8.2 ± 2
CC(C)(Sc1ccncc1-c1ccc(C#N)c2ccccc12)C(=O)O  renal uric acid clearance (male gout patients, urine; 300 mg, 0 to 24 h, added: verinurad 10 mg alone or combined; relative to: baseline): 122%
Polymyxin B  IL-10 release (human whole blood; 250 ng/mL, 4 h, 37 °C, added: E. coli LPS 0.5 ng/mL; relative to: LPS without compound): 34.9 ± 16.7%
COCCc1ccc(OCC(O)CNC(C)C)cc1 (stereo not drawn)  Na+/K+-ATPase activity (rats, adrenaline arrhythmia, myocardium; intragastric, 2.57 g/kg daily, 14 days): 11 ± 0.74 U/mL
CCN(CC)c1ccc(/C=C2\NC(=O)NC2=O)cc1  glycogen content (Sprague Dawley rats, liver; ip, 5, 15, 25 mg/kg; relative to: vehicle): increased
COc1ccc(Nc2c(-c3ccc(S(C)(=O)=O)cc3)nc3cc(C)ccn23)cc1  pain score AUC (formalin test; male Wistar rat; intraperitoneal, 40 mg/kg; relative to: control group): decreased
Cn1ncc2cc(COc3ccccc3-c3cc(=O)n(C4CCCCC4O)cn3)ccc21 (stereo not drawn)  ΔpEC50 of ACh (CHRM1; positive allosteric modulator, IP1 accumulation; CHO-M1 cells; 10 µM, 60 min, 37 °C, added: ACh; relative to: ACh alone, higher = stronger potentiation): 0.95 ± 1.04 log units
CCO[C@H](COc1ccc(C(F)(F)F)cc1)CSc1ccc(OCC(=O)O)c(C)c1  effective dose (hepatic PPAR target gene induction; dyslipidemic Sprague-Dawley rat, liver; added: ACC inhibitor): 15 mg/kg
CC(C)(C)OC(=O)Nc1ccc(COc2ccccc2-c2cc(=O)n(C3CCCCC3O)cn2)cc1 (stereo not drawn)  change in baseline activity (CHRM1; allosteric agonist, IP1 accumulation; CHO-M1 cells; 1 µM, unit not given; relative to: maximum ACh response): 43.1 ± 2.8
Cn1c(-c2ccc(Br)s2)nc2cc(-c3nnc(-c4cc(-c5cc(F)cc(F)c5)nc5ccccc45)o3)ccc21  plasma recalcification time (human platelet-rich plasma; concentration not given): 410 s
COc1cc(NC(=O)CCN2CCC(OC(=O)Nc3ccccc3-c3ccccc3)CC2)c(Cl)cc1CNC[C@H](O)c1ccc(O)c2[nH]c(=O)ccc12  Emax (refers to: trough FEV1; COPD patients; day 29): 0.293 L
O=c1c(O)c(-c2ccc(O)c(O)c2)oc2cc(O)cc(O)c12  lowest effective concentration (cell proliferation, CellTiter-Glo; cord blood CD34+ cells, human; 24 h, lowest dose with significant inhibition; relative to: vehicle): 250 to 500 µM
cilengitide  collagen deposition (Sprague-Dawley rats, TNBS colitis, colon; ip, 18 mg/kg/day, 42 d): 18 ± 2 % muscularis volume
NC(=O)N1c2ccccc2C[C@H](O)c2ccccc21  effective brain concentration (mouse; po, 50 mg/kg of eslicarbazepine acetate, 97% protection against MES): 22 µmol/L

For quick reference, copied from above:
RKVVTDFFKNIPQRI  IFN-gamma secretion (sandwich ELISA; peptide, peptide-specific T cell line, mouse, culture supernatant; dose not given, 48 h): 0.251 ng/mL
Cc1ccc(NC(=O)c2ccc(CN3CCN(C)CC3)cc2)cc1Nc1nccc(-c2cccnc2)n1  reduction in RVSP (rat, SU5416/hypoxia PAH model; oral, 15.0 mg/kg once daily, 2 weeks; relative to: vehicle): 28%
tissue plasminogen activator  BBB leakage (refers to: fibrin; rat MCAO stroke model, brain; dose not given, 24 h, dosed 4 h after MCAO; relative to: saline): increased
